Measured values pooled from the literature.
Compare with care: the assays were run in different laboratories.
CFTR del508-508: Cystic fibrosis transmembrane conductance regulator (CFTR, Homo sapiens, UniProt P13569, del508-508)
gyrA/gyrB: DNA gyrase (gyrA/gyrB, Escherichia coli, UniProt P0AES4+P0AES6)

COc1cc(C2C(NC(=O)c3ccc(NC(=O)OC(C)(C)C)cc3)(C(=O)O)C(c3ccc(OC(=O)c4cccs4)c(OC)c3)C2(NC(=O)c2ccc(NC(=O)OC(C)(C)C)cc2)C(=O)O)ccc1OC(=O)c1cccs1 (stereo not drawn) — EC50 (Glucagon-like peptide 1 receptor, with β-arrestin 1 (GLP1R, Homo sapiens, UniProt P43220); β-arrestin 1 recruitment, agonist, BRET): 50100 nM
Cn1c(=O)n(C2CCC(=O)NC2=O)c2ccc(C3CCN(CC(=O)Nc4cccc(CS(=O)(=O)N5CC[C@H](Nc6cccc(-c7sc(C(=O)O)c(OCC(=O)O)c7Cl)c6)CC5(C)C)c4)CC3)cc21 (stereo partly drawn) — EC50 (PTPN2 (Homo sapiens, UniProt P17706); phosphatase activity; together with: DiFMUP substrate): 15.1 nM
COc1ccc(C2(C(=O)N3CCC(Nc4nc5ccccc5c(=O)[nH]4)CC3)CC2)cc1 — EC50 (MRGPRD (Homo sapiens, UniProt Q8TDS7, N157A); miniGq recruitment, BRET1; N157A mutant): 45.7 nM
COc1ccc(C(=O)c2c(C(=O)NCCCN(C)C)oc3ccc(Cl)cc3c2=O)cc1OC — EC50 (GHSR (Homo sapiens, UniProt Q92847); G protein activation, agonist, BRET): 56.2 nM
O=C(NC[C@@H](Cc1ccc(F)cc1)N1CCC(O)(C(F)(F)F)CC1)C1(c2ccc(Cl)cc2)CCCC1 — EC50 (TRPA1 (Homo sapiens, UniProt O75762, T874A)): 13000 nM
O=C(Cc1ccc(OCc2ccccc2)cc1)NC1(C(=O)O)CCN(C(=O)c2ccc(-c3cccc(Cl)c3)cc2)CC1 — EC50 (LPAR2 (Homo sapiens, UniProt Q9HBW0); cAMP, agonist, luciferase): > 10000 nM
O=C(O)CC(NC(=O)c1ccc(-c2ccc(F)cc2)o1)C(=O)O (stereo not drawn) — EC50 (Sucnr1 (Mus musculus, UniProt Q99MT6); inositol phosphate, agonist): 425 nM
CNc1ncnc2c1ncn2C1OC(CO)C(O)C1O (stereo not drawn) — EC50 (ADORA3 (Homo sapiens, UniProt P0DMS8, L264F); G protein activation, agonist): 1100 nM
CCN(CC)C(CO)c1cccc2c(C)c(C)oc12 (stereo not drawn) — EC50 (LPAR1 (Homo sapiens, UniProt Q92633, W210A); G-protein dissociation, agonist, NanoBiT; human cells): 49.5 nM
Cc1cc(=O)[nH]c(-n2nc(-c3cccs3)cc2NC(=O)C2(c3ccc(Cl)cc3)CCCC2)n1 — EC50 (CFTR del508-508; plasma membrane density, corrector, PM-ELISA): 2530 nM
Cl.[Cl][Ru-4]123([n+]4ccccc4-c4cccc([n+]41)-c1cccc[n+]12)[n+]1ccc(-c2ccccc2)c2ccc4c(-c5ccccc5)cc[n+]3c4c21 — EC50 (gyrA/gyrB; supercoiling inhibition): 35100 nM
CCOC(=O)c1c(S(=O)(=O)Nc2ccc([N+](=O)[O-])cc2)c(-c2ccccc2)n(-c2ccccc2)c1C — EC50 (CFTR del508-508; ion flux, activator): 1210 nM
N.N.[Cl][Pt+].c1ccc2c(c1)cnc1ccccc12 — EC50 (gyrA/gyrB; supercoiling inhibition): 87000 nM
CCOC(=O)c1c(S(=O)(=O)Nc2ccc(C(F)(F)F)cc2)c(-c2ccccc2)n(-c2ccccc2)c1C — EC50 (CFTR del508-508; plasma membrane density, corrector, PM-ELISA): 710 nM
O=C1C[C@H](c2nc(-c3ccc(F)c4cn[nH]c34)no2)CCCN1c1ccc(F)cc1 (racemic) — EC50 (CNR2 (Homo sapiens, UniProt P34972, F94A); cAMP, agonist, luciferase): 813 nM

Some of these lines once more:
N.N.[Cl][Pt+].c1ccc2c(c1)cnc1ccccc12 — EC50 (gyrA/gyrB; supercoiling inhibition): 87000 nM
